Results from different studies.
Every numbered part comes from another study and shows a few of its results, in no order. Substitutions count along the parent as printed.

Set 1
Target: Histone acetyltransferase KAT6A, winged helix 2, GST fusion (KAT6A, Homo sapiens, UniProt Q92794, residues 85-181)
Technique: protein binding microarray
Molecule type: double-stranded DNA, one strand shown
Sample: in vitro
Concentration: not given
Setting: 8-mer, flanks averaged, mean of 2 arrays, mostly near background
Relative to: not given
Reading: higher = stronger binding
Quantity: E-score
Target sequence (chain): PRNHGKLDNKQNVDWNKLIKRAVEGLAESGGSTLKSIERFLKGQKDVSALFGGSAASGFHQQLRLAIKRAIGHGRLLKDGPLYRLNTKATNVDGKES
CCCAAGCA: 0.0298
CCCATCGC: 0.11
TCTAGCCA: -0.148
GAAAGGGA: -0.0168
GATCGCAA: 0.175
CTGTCAAA: 0.0398
ACTATCAC: -0.118
TGGACACA: 0.0517

Set 2
Target: Centromere-binding protein 1, full length, His-tagged (CBF1, Saccharomyces cerevisiae, UniProt P17106, residues 1-351)
Chain of UniProt P17106 (whole entry, looked up): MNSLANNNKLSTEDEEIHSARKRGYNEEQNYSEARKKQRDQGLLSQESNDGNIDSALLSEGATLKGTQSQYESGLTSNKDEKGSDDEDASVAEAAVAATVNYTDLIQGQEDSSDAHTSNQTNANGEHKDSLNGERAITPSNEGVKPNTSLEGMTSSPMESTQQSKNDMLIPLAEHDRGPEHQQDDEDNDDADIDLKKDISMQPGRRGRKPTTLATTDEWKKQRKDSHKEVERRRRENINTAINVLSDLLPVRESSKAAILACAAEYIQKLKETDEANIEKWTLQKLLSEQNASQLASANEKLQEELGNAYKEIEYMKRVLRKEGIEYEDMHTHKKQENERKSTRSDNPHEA
Technique: competition protein-binding microarray
Molecule type: double-stranded DNA, one strand shown
Sample: in vitro
Concentration: 2 µM
Setting: whole 60-bp probe, lowest competitor level
With: Pho4 competitor, 0.05 µM
Reading: higher = stronger binding
Quantity: fluorescence intensity
Constant ends, left off below: … GTCTTGATTCGCTTGACGCTGCTG
AGTGCTCATACGCATCATATGACATGGATGATACGG: 361 a.u.
AGAAACGAAACAAATCATGTGTTACCCGTCCTGGAC: 295 a.u.
CTTCTGTAAATTTGTCACATCACTTGACGCGCCCCG: 111 a.u.
TCACTCCTGATGAAGCTCGTGTGAAGGAATTCAACC: 104 a.u.
CTTTCCCGATCTTGTGGGGTGGGTGTAGCACATTTG: 81.1 a.u.
CTTTCCCGATCTTGCTGTGTGGGTGTAGCACATTTG: 73.3 a.u.
TTGATCTTGCCAAGTCTCGTGGTGAACTATCCATTT: 158 a.u.
AAGGAGGGTAAGACACACATGATAATCAATGTCGAA: 117 a.u.

Set 3
Target: Sal-like protein 4, full length isoform B (SALL4, Homo sapiens, UniProt Q9UJQ4-2, residues 1-616)
Technique: universal PBM
Molecule type: double-stranded DNA, one strand shown
Sample: in vitro
Concentration: not given
Setting: 8-mer, flanks averaged, mean of replicates
Reading: higher = stronger binding
Quantity: E-score
Target sequence (chain): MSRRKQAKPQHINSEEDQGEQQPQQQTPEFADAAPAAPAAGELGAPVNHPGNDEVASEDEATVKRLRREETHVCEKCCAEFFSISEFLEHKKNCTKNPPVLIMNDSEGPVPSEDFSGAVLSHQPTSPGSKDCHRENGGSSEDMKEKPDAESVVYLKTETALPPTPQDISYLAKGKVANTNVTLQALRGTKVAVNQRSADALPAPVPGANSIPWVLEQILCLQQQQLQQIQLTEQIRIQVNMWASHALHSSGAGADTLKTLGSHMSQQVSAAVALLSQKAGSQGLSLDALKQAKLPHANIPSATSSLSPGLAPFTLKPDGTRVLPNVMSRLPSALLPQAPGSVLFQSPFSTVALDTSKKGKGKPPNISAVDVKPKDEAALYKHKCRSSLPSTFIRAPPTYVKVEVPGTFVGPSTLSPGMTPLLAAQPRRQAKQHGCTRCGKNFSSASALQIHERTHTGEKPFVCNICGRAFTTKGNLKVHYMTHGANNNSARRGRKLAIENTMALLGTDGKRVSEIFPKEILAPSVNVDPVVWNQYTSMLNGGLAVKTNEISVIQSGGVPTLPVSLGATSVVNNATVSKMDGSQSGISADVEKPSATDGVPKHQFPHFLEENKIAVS
CGCCAGGC: -0.334
ATGTCACC: -0.0223
ATCAAGGA: 0.136
GGTACTAC: 0.0554
CTCGACAC: -0.194
GGCGGAGA: -0.191
CATCGTAC: 0.147
AGGGTACG: -0.00503

Single results of other studies
Parent: viral docking peptide; TSVRRALFTGGSD
TIVRRALFTGGSD [S2I]  normalised enrichment score (CCNB1, cyclin fold, Cln2 fusion (human); yeast growth competition, sequencing; yeast; strong parent motif; relative to: not given, higher = stronger binding): 1.06
